Published values of several laboratories.
Each numbered part is a random draw from the data of one study; scales do not carry over between parts. Positions count from the first letter of the parent shown.

Block 1
Target: CRIPT, C-terminal peptide
Technique: DHFR complementation, deep sequencing
Medium: yeast
Setting: single substitutions, model-inferred values
Reference: wild type
Reading: higher = weaker binding
Quantity: binding free energy change
Starting sequence: ERBIN, PDZ domain 1 (human); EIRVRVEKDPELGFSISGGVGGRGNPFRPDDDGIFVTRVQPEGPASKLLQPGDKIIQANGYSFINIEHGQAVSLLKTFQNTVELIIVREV; partner TKNYKQTSV
Q57S: -0.0741 kcal/mol
N65I: 0.2 kcal/mol
G19N: 1.35 kcal/mol
V72T: 1.12 kcal/mol
V87E: -0.165 kcal/mol
G19R: 1.3 kcal/mol
R5A: 0.00165 kcal/mol
P26W: 0.676 kcal/mol

Block 2
Target: Histone acetyltransferase KAT6A, winged helix 1, GST fusion (KAT6A, Homo sapiens, UniProt Q92794, residues 1-85)
Technique: protein binding microarray
Form: double-stranded DNA, one strand shown
Medium: in vitro
Concentration: not given
Setting: 8-mer, flanks averaged, mean of 2 arrays, mostly near background
Reference: not given
Reading: higher = stronger binding
Quantity: E-score
Construct (chain): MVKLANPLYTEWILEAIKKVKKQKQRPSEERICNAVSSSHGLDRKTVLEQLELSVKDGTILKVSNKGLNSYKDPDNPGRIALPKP
ACAGTCTC: -0.221
CGTACATA: 0.0639
ATTTGTTG: -0.216
CAACACGC: -0.0118
CCGGATCC: 0.111
CTGACAGC: -0.0485
GAGTGACA: -0.121
GTACGAGA: -0.107

Block 3
Target: PABPC1L2, full length, GST fusion (mouse, UniProt A0ABA7IW68)
Technique: RNAcompete
Form: RNA
Medium: in vitro
Concentration: 20 nM
Setting: 7-mer, probes averaged, single round
Reference: mean of 7-mers
Reading: higher = stronger binding
Quantity: 7-mer Z-score
Construct (chain): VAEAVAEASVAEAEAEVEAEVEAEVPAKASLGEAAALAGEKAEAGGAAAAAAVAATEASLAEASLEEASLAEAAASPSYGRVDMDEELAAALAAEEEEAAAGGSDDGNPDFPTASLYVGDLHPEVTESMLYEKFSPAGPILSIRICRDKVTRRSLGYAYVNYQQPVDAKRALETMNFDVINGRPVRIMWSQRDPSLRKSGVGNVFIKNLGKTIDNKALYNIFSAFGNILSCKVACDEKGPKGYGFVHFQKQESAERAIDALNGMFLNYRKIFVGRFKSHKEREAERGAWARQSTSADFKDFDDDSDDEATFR
CUGGCAA: 0.122
UACUAGC: -0.224
AUAAAUU: 2.89
UCCGUAC: -0.371
CCAAAGC: -0.13
AACCUGG: 0.00798
GUAUCGG: -0.0246
CAUCCCA: -0.391

Single results of other studies
Starting sequence: viral docking peptide; KKAKRRLFTISDS
F8A
normalised enrichment score (CCNA2, cyclin fold, Cln2 fusion (human); yeast growth competition, sequencing; yeast; strong parent motif; reference: not given, higher = stronger binding): 0.782
